Measured values of several laboratories.
Numbered parts are unrelated; each lists some results of a single study. Changes are numbered by the printed parent chain.

Series 1 — method: RNA Bind-n-Seq; molecule type: RNA; matrix: in vitro; concentration: 365 nM; baseline: no-protein control; reading: higher = stronger binding; endpoint: RBNS enrichment (R)
Target: RNA binding protein fox-1 homolog 2, RRM domain, GST-SBP tag (RBFOX2, Homo sapiens, UniProt O43251-10, residues 100-194)
Notes: natural RNA segment, single round, ends assumed
All sequences stand within: GGGAGUUCUACAGUCCGACGAUC … UGGAAUUCUCGGGUGCCAA
Residues (chain): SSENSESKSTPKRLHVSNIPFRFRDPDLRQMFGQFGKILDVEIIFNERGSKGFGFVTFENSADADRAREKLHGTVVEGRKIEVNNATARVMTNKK
UGAAUGCCAUUGUGUGCCAGUUGCUCCCCUACCUCUGAUGACAUCUCUGUUCUCCCUGGGAAAGGUCAUCAUCUCUGUUCAGAUGGGGAAGUUGAGGCCCAGAGAAUUUA: 1.2
GGGACGCCCCCAGACCCUGACUUUCUCCUGCGUGGGCCGUCUCCUCCUGCGGAAGCAGUGACCUCUGACCCCUGGUGACCUUCGCUUUGAGUGCCUUUUGAACGCUGGUC: 0.557
CUAAGGAUGAGGGCUGUCAAACAGAAAAUGCUGAAGACUUUACAGCUGUGGGGUCCAAAACCCUAAGGGCUCCAAUCCCACCCACAUUCUUUCUCGGUCUUUGUCUCUCU: 0.368
UAAUACAUCUACCUUCCCUUAUACUUUCUUCUAAGGCCUGAUUUUCUUUGCUUGGGAAGUGGAUUAAUCUUAUCACUGGUCAUUUAGAGGAACCAAUGCCAAACCCCAUA: 0.805
AUCAUAGUCGAUACAUUCAAGUACUUUAUCUUCAGUUCCUAUUUAAUUGUCUUCAGAUAUAUCAUCAUAACUGAUGCAAGAUAAGGUGAAAUCUUGCAUCUUCAAGAAAA: 0.469
GAACUAAACUAGUAAAAAUAUCUGAACAAAAAACCUUUCGUUGUUGGCAUAAAAAUGUGAUACACUUAGAGACAUUUUGUUUAUUGCAUAUAAAUCUAAUUUUUCCAUAA: 0.539
UUAGUGCCACCAGACUAGACCUGUAUCAUUCAUGGUAUAAAUUUUACUCUUGCAACAUAACUACCAUCUCUCUCUUAAAACGAGAUCAGGUUAGCAAAUGAUGUAAAAGA: 0.222
AGGUAGAAUUACUAAUACAAGGGUUAAAGAAGGUAGAUUUUGUUUUCAAUAUUUGGGUAAUAUUAGAAAGAUUCUUCCCACAGGGAAGAACUAGCAAGUGUCCCAAUUUU: 0.777
UAACUCAUGCAUGGCCACUGAACCUCUCUCUAGUAGCCUGGAUUUAUCAUUCUCUCUGCCUGCCCACCCCCUUUUUUGUAUAGCCCAAGAACCACUUCCAUGCCAUACUG: 1.15
GCCCAUCUGUAUGCUGGUAGCUAGUGAUUUACACAGGUUUAGUUGACUAAUGAGGCAUUACAAAUAAUAUUACUCUAUGAUGAUUGCUUCCACCCACACGACUGCAACAU: 0.861
AAAGUGCCCUUCAACGGACCCUGUUCACUGCUGCACUUCUCAAUGAAUUAAAACUGACUUCUGUUCUAGUGGCAAUGUGUCCUUUGUUUUUAGUCCACAGGUGUUGAUUC: 0.214
AAGUAGCUAGAGCCAUGGAAGUACAGUAUGAAUUAAAAAGAAAAAAGUAUUGAACUACAAUAAUAAAUGGUGUGCGUGUUUAUUGCUUGAUCUAUGAAUGCUCGUCACCU: 1.89

Series 2 — method: Sort-seq; item: YFP reporter; matrix: E. coli; notes: PhoQ-PhoP variant library; added: 10 µM Mg2+; baseline: high Mg2+ state; reading: higher = stronger signaling; endpoint: fold induction
Molecule: PhoQ, residues 284 288 289 292 302 303 SLSLLA
PhoP, residues 12 14 15 18 19 QYFSL (Escherichia coli, UniProt P23836): 14.5
PhoP, residues 12 14 15 18 19 NYFRM (Escherichia coli, UniProt P23836): 10.6
PhoP, residues 12 14 15 18 19 TQALL (Escherichia coli, UniProt P23836): 1.47

Series 3 — method: protein binding microarray; molecule type: double-stranded DNA, one strand shown; matrix: in vitro; concentration: not given; baseline: not given; reading: higher = stronger binding; endpoint: E-score
Target: Histone acetyltransferase KAT6A, winged helix 1, GST fusion (KAT6A, Homo sapiens, UniProt Q92794, residues 1-85)
Notes: 8-mer, flanks averaged, mean of 2 arrays, mostly near background
Residues (chain): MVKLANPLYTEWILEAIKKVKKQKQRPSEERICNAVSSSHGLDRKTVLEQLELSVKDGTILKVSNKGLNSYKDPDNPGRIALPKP
GGAGGTTA: 0.0132
CGATTACA: -0.0228
ATGCCCTG: -0.0712
AGCAAGCC: -0.0962
AGTCCGCG: 0.325
ACCTAGCG: 0.239
AGCAGCCG: 0.126
CACCGAGA: -0.1
GAGTCTCA: -0.0887

Series 4 — target: CCNA1, cyclin fold, Cln2 fusion (human); method: yeast growth competition, sequencing; matrix: yeast; notes: weak parent motif; baseline: not given; reading: higher = stronger binding; endpoint: normalised enrichment score
Starting sequence: GMNC docking peptide (human); KNAKRNLSSEFAN; partner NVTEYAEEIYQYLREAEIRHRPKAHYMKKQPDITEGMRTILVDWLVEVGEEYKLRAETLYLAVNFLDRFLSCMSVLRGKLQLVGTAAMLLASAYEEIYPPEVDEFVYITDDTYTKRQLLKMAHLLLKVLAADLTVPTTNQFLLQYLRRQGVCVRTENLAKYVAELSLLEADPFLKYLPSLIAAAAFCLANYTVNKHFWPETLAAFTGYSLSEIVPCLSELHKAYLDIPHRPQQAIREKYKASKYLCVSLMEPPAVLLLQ
KNAKRNLSKEFAN [S9K]: 0.582
KNATRNLSSEFAN [K4T]: -0.0209
KNAKHNLSSEFAN [R5H]: 0.354
KNASRNLSSEFAN [K4S]: 0.37
KNAKRNLASEFAN [S8A]: 0.528
KNAKRNLWSEFAN [S8W]: 0.142
KNAKRNLCSEFAN [S8C]: 0.338
KNAKRNLGSEFAN [S8G]: 0.616
KNAKRNLISEFAN [S8I]: 0.838
KNAKRNLSPEFAN [S9P]: 0.258
KNAKRNLSQEFAN [S9Q]: 0.561

Repeated from above (series 3):
GGAGGTTA: 0.0132
CGATTACA: -0.0228
ATGCCCTG: -0.0712
AGCAAGCC: -0.0962
